Results pooled from the literature.
A part holds a random share of what one study measured.

Series 1
Target: Histone acetyltransferase KAT6A, winged helix 1, GST fusion (KAT6A, Homo sapiens, UniProt Q92794, residues 1-85)
Method: protein binding microarray
Molecule type: double-stranded DNA, one strand shown
Matrix: in vitro
Tested at: not given
Notes: 8-mer, flanks averaged, mean of 2 arrays, mostly near background
Relative to: not given
Direction: higher = stronger binding
Target sequence (chain): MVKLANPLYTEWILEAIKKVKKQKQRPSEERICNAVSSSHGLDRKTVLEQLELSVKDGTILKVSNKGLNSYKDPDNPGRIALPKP
Sequence | E-score
ACTTTCCC | -0.115
AACCTCTT | 0.0114
CAATCAAA | -0.124
CCCCTCAG | -0.0608
ATCTGCCA | -0.17
ACAGCCGT | 0.275
CTATCTGA | -0.205
GCTGCTCA | -0.14
GTGACAAC | -0.0758
AAAATCGA | -0.244
GGAGCATA | -0.0575
CACCTTAA | -0.106
CACCCCTG | -0.16
TGCTGCCA | -0.145
ACCACCTA | -0.0503
ACTGAGCC | -0.0487
AACGGGCC | 0.268

Series 2
Target: Sal-like protein 4, full length isoform B (SALL4, Homo sapiens, UniProt Q9UJQ4-2, residues 1-616)
Method: universal PBM
Molecule type: double-stranded DNA, one strand shown
Matrix: in vitro
Tested at: not given
Notes: 8-mer, flanks averaged, mean of replicates
Direction: higher = stronger binding
Sequence | E-score
AGCCTTGC | -0.319
CATCAATC | 0.173
GCGATACC | -0.182
CCTAGGGC | -0.262
CCTGGAAA | 0.00999
ATACTGTC | 0.145
CATTGTTC | 0.0383
ATGACACA | 0.182
AACCTACT | -0.0307
TACCAGCA | 0.00221
GAGACCAA | -0.107
AGGGTTCC | -0.169
AAACTGTT | 0.211
AACAACCC | -0.0205
CCAATGGG | -0.37
CATGAAAG | 0.0892
ATGGTCGA | 0.0545
AGAAGGCA | -0.016
ATCTCGGC | -0.178

Series 3
Target: Fragile X messenger ribonucleoprotein 1, C-terminal low-complexity region (Fmr1, Mus musculus, UniProt P35922)
Method: RNA Bind-n-Seq
Molecule type: RNA
Matrix: in vitro
Tested at: 200 nM
Notes: whole 134-nt RNA, ends assumed
Added: 150 mM KCl
Relative to: input library
Direction: higher = stronger binding
Constant ends, left off below: GGGAGUUCUACAGUCCGACGAUC … UGGAAUUCUCGGGUGUCAAGG
Sequence | log2 enrichment
UCAAGUCCUGUGCUACACAUCGUAUGUACCGAAUCGGGCCGGGGCCGGGGCCGGAAAGUAUUAUGUUACGCCGUUCGGAUCUGCACUUCC | -0.457
UAACUUUAGAGGAGGAUCUGAUGGAUAUGGCAGUGGACGUGGAUUUGGGGAUGGCUAUAAUGGGUAUGGAGGAGGACCUGGAGGAGGCAA | 0.0908
UGCGCCAACCUAGGCUUUCUUCUUCCUCUCCUCUUUAUAGGCGGAGUCGAUCUCCCAAAAGGAGAAGGUAGGCCUUCAGUCAUUUGUGAU | -0.124
UCCUGUGCUACACAUCGUAUGUACCGAAUCAAACCCCCCCAAACCCAAAUUUUUUUAAAAAAGUAUUAUGUUACGCCGUUCGGAUCUGCA | 0.115
UCAAGUCCUGUGCUACACAUCGUAUGUACCGAAUCGGAAAAAGGAGGAAAAAGGAAAGUAUUAUGUUACGCCGUUCGGAUCUGCACUUCC | -0.525
GCAGGAAGGAAAAACAAAUGGAAAUGCUUCGGAUAGUGGCAGGGGUGGGGGUUGCUAAGGAAAGGGUGGGAUGGGAGUGGGUAAAGAGUU | 0.774
UGGGAGGUGGAUUUUGUUUAUCUUUUUAGCUCAUUUCCAGGGGUGGGAAUUUUUUUUUAAUAUGUGUCAUGAAUAAAGUUGUUUUUGAAA | 0.289
CCUGUGCUACACAUCGUAUGUACCGAAUCGGAAAAAAAGGGGAAAAAAAGGAAAAAAAGGAAAGUAUUAUGUUACGCCGUUCGGAUCUGC | -0.566
CCUGUGCUACACAUCGUAUGUACCGAAUCGGGUUUUUUUGGGUUUUUGGGUUUUUUUGGGAAAGUAUUAUGUUACGCCGUUCGGAUCUGC | -0.318

Series 4
Target: Prothrombin, mature alpha-thrombin (F2, Homo sapiens, UniProt P00734)
Method: aptamer microarray, sandwich
Molecule type: DNA with 2'F-ANA
Matrix: in vitro
Tested at: 200 nM
Notes: whole 15-mer aptamer, many near background
Added: Cy3 exosite-II aptamer, 400 nM
Direction: higher = stronger binding
Sequence: GGTTGGTGTGGTTGG
Modification | mean fluorescence intensity
2'F-ANA at 1 3 4 6 8 9 11 12 14 15 | 82.8 a.u.
2'F-ANA at 2 3 6 9 10 13 | 345 a.u.
2'F-ANA at 2 4 5 12 15 | 151 a.u.
2'F-ANA at 3 4 6 9 12 13 14 | 261 a.u.
2'F-ANA at 2 4 6 9 10 12 13 | 135 a.u.
2'F-ANA at 1 2 4 5 7 8 10 13 14 | 47.9 a.u.
2'F-ANA at 4 6 7 11 12 13 14 | 102 a.u.
2'F-ANA at 2 3 4 6 7 8 9 10 11 12 13 15 | 177 a.u.
2'F-ANA at 1 2 8 9 10 11 14 15 | 52.9 a.u.
2'F-ANA at 5 7 8 15 | 85.7 a.u.
2'F-ANA at 1 2 3 8 9 10 11 12 | 97.9 a.u.
2'F-ANA at 1 6 8 | 238 a.u.
2'F-ANA at 1 2 7 8 9 10 12 14 | 51.7 a.u.
2'F-ANA at 4 5 6 9 10 13 | 77.2 a.u.
2'F-ANA at 4 5 8 10 11 13 14 | 49 a.u.
2'F-ANA at 2 5 8 9 12 13 15 | 98 a.u.
2'F-ANA at 1 5 6 7 8 9 | 67.3 a.u.
2'F-ANA at 3 4 6 7 8 9 10 11 13 | 187 a.u.
2'F-ANA at 2 12 15 | 784 a.u.

For quick reference, copied from above (series 2):
Sequence | E-score
AAACTGTT | 0.211
AACAACCC | -0.0205
CCAATGGG | -0.37
CATGAAAG | 0.0892
ATGGTCGA | 0.0545
